Measurements collected from several papers.
Protocols differ between the studies behind these lines. ± gives the spread as reported.

SMILES	assay	test system	setting	half-life
O=c1[nH]c(Cc2ccccn2)nc2c1cnn2C1CCOCC1		healthy male human, plasma	oral, 10 mg, geometric mean	1.83 h
O[C@H]1CCCN[C@@H]1CCCn1cnc2c(Cl)c(Cl)ccc21		healthy human volunteers, plasma	oral, 200 mg, day 1, multiple ascending dose	3.74 h
Oc1ccc2cc3ccc4cccc5ccc(c2c1)c3c45	UPLC-AMS	human, plasma	oral, 100 ng of [14C]-BaP	67.6 ± 167 h
COc1ccsc1CNCC[C@@]1(c2ccccn2)CCOC2(CCCC2)C1		healthy human, normal renal function, plasma	intravenous, 1 mg single dose, geometric mean	2.34 h
Cc1ncc(OC[C@@]2(c3cccc(F)c3)C[C@H]2C(=O)Nc2ccc(F)cn2)c(C)n1		human, plasma	10 mg, mean, added: fluconazole 200 mg	99.5 h
CC[C@H](C)[C@H](NC(=O)[C@H](CC(C)C)NC(=O)[C@H](Cc1c[nH]c2ccccc12)NC(=O)[C@H](CCC(N)=O)NC(=O)[C@@H](NC(=O)[C@H](Cc1ccccc1)NC(=O)[C@H](C)NC(=O)[C@H](CCCCNC(=O)COCCOCCNC(=O)COCCOCCNC(=O)CC[C@H](NC(=O)CCCCCCCCCCCCCCCCCCC(=O)O)C(=O)O)NC(=O)[C@H](CCC(N)=O)NC(=O)[C@H](C)NC(=O)[C@@H](NC(=O)[C@H](CCCCN)NC(=O)[C@H](CC(=O)O)NC(=O)[C@H](CC(C)C)NC(=O)C(C)(C)NC(=O)[C@@H](NC(=O)[C@H](CO)NC(=O)[C@H](Cc1ccc(O)cc1)NC(=O)[C@H](CC(=O)O)NC(=O)[C@H](CO)NC(=O)[C@@H](NC(=O)[C@H](Cc1ccccc1)NC(=O)[C@@H](NC(=O)CNC(=O)[C@H](CCC(=O)O)NC(=O)C(C)(C)NC(=O)[C@@H](N)Cc1ccc(O)cc1)[C@@H](C)O)[C@@H](C)O)[C@@H](C)CC)[C@@H](C)CC)C(C)C)C(=O)N[C@@H](C)C(=O)NCC(=O)NCC(=O)N1CCC[C@H]1C(=O)N[C@@H](CO)C(=O)N[C@@H](CO)C(=O)NCC(=O)N[C@@H](C)C(=O)N1CCC[C@H]1C(=O)N1CCC[C@H]1C(=O)N1CCC[C@H]1C(=O)N[C@@H](CO)C(N)=O		human, severe renal impairment, plasma	subcutaneous, 5 mg single dose, geometric mean	117 h
CN[C@@H]1C[C@H]2O[C@@](C)([C@@H]1OC)n1c3ccccc3c3c4c(c5c6ccccc6n2c5c31)C(=O)N[C@@H]4O		human patients	intravenous infusion, 34 mg/m^2/24 h, 72 h infusion, cycle 1, mean, added: prednisone	379 h
Oc1ccc2ccc3c4ccccc4cc4ccc1c2c43	UPLC-AMS	human, plasma	oral, 50 ng of [14C]-BaP	2.28 ± 0.51 h
CC[C@@]1(O)C(=O)OCc2c1cc1n(c2=O)Cc2cc3c(CN(C)C)c(O)ccc3nc2-1		human patients	oral, 2.5 mg daily, 5 days, cycle 2 day 5, geometric mean, added: pazopanib 800 mg daily	3.77 h
C=C(C)[C@@H]1CCC(C)=C[C@H]1c1c(O)cc(CCCCC)cc1O		human, plasma	arithmetic mean, added: rifampicin 600 mg once daily	35.5 h
COc1ccc(C[C@@H]2NC(=O)[C@H]([C@@H](C)O)NC(=O)[C@@H]3[C@@H]4CCN3C(=O)[C@@H]3Cc5cn(c6ccc(F)cc56)CCCCCCN(Cc5ccc(cc5)CCNC(=O)[C@]5(C)CCCN5C2=O)C(=O)CCC(=O)N[C@@H](C)C(=O)N[C@H](CNC(=O)CCCCC[N+](C)(C)C)C(=O)N[C@@H](Cc2cccc(c2)CNC(=O)CO4)C(=O)N3)cc1		healthy fasted humans, plasma	oral, 10 mg single dose, geometric mean, added: Labrasol 1800 mg	35.1 h
CN(C)C/C=C/C(=O)Nc1cc2c(Nc3ccc(F)c(Cl)c3)ncnc2cc1O[C@H]1CCOC1		human	65 mg	33.3 h

A few entries again:
SMILES	assay	test system	setting	half-life
CC[C@@]1(O)C(=O)OCc2c1cc1n(c2=O)Cc2cc3c(CN(C)C)c(O)ccc3nc2-1		human patients	oral, 2.5 mg daily, 5 days, cycle 2 day 5, geometric mean, added: pazopanib 800 mg daily	3.77 h
